{"data": "Assay results pooled from the literature", "RMS3": "RMS3 (Lathyrus oleraceus, UniProt A0A109QYD3)", "note": "Compare with care: the assays were run in different laboratories. ± marks the error that the study gave.", "UniProt A0A109QYD3, sequence (whole entry, looked up)": "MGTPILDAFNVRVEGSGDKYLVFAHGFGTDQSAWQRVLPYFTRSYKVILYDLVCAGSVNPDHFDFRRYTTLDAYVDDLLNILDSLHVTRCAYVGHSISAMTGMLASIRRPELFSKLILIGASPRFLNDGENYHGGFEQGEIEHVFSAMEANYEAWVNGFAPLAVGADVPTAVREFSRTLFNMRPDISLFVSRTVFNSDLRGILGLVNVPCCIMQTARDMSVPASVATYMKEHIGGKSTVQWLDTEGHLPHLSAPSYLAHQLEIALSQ", "UniProt P31224, sequence (whole entry, looked up)": "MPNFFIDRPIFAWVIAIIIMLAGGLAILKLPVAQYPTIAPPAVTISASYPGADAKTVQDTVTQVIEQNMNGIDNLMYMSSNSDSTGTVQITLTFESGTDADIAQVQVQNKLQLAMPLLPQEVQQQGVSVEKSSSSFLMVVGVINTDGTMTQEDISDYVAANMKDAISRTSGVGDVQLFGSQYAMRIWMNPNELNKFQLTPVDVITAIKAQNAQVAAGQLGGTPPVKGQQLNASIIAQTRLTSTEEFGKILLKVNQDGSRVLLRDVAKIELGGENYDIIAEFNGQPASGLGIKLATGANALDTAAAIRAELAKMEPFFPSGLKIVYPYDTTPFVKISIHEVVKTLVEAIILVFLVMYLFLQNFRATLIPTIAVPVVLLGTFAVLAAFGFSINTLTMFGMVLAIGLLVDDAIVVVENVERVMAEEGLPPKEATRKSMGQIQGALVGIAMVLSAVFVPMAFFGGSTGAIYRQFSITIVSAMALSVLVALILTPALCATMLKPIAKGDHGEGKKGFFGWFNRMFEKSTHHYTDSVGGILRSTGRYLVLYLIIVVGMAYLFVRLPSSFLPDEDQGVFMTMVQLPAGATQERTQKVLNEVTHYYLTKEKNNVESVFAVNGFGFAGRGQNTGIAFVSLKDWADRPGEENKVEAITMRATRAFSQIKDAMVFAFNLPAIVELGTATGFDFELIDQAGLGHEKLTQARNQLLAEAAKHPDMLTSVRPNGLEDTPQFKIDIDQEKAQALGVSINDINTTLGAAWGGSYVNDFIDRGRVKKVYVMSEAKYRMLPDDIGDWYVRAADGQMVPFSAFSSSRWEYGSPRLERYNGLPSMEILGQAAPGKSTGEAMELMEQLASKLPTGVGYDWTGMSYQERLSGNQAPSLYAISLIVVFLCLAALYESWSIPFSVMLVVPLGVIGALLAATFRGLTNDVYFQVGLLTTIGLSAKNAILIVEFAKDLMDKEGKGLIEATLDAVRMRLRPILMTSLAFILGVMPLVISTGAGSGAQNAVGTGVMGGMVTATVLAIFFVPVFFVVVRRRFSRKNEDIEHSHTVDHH", "UniProt C0LGQ5, sequence (whole entry, looked up)": "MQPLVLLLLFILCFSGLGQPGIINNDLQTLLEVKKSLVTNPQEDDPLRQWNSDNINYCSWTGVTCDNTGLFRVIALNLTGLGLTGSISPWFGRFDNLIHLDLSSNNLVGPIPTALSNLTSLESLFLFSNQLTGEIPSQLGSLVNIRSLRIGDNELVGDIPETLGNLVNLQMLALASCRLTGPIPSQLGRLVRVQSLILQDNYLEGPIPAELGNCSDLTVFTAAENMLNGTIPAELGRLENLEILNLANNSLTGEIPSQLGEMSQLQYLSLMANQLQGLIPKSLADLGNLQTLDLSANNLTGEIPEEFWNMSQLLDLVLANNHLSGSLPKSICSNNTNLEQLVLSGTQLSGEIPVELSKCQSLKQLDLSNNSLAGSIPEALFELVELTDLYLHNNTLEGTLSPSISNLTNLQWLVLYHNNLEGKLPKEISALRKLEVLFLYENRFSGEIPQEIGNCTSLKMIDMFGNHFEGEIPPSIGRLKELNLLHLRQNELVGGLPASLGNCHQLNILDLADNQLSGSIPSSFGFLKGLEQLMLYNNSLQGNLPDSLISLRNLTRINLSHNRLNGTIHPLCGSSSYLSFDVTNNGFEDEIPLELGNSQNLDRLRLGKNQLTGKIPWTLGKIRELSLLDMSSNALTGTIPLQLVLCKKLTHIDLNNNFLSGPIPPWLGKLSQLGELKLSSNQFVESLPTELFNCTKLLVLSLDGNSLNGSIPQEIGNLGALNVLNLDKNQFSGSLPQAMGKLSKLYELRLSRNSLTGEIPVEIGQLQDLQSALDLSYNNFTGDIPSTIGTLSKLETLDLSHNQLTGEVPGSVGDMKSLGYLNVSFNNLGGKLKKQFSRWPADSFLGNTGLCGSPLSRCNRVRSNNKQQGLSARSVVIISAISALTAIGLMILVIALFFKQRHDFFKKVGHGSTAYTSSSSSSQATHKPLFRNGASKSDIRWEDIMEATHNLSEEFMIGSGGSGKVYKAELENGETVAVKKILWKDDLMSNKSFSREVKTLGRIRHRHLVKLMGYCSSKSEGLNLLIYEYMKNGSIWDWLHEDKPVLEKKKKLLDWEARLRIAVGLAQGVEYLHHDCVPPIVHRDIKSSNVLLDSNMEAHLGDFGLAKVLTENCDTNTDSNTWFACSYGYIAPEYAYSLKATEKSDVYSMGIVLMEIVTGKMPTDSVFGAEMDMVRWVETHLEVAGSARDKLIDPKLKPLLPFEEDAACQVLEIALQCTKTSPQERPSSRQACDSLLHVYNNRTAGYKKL", "UniProt Q15759, sequence (whole entry, looked up)": "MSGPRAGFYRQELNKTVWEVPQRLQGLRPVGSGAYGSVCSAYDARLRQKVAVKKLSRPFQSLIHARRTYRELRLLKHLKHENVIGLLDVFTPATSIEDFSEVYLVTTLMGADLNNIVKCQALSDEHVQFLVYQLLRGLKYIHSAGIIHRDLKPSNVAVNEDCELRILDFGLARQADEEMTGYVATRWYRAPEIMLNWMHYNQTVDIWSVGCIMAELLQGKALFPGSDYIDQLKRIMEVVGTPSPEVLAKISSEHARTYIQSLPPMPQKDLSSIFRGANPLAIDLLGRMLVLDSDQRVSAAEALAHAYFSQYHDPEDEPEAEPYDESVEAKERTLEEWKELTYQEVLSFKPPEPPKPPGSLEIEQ", "UniProt P00514, sequence (whole entry, unmodified, looked up)": "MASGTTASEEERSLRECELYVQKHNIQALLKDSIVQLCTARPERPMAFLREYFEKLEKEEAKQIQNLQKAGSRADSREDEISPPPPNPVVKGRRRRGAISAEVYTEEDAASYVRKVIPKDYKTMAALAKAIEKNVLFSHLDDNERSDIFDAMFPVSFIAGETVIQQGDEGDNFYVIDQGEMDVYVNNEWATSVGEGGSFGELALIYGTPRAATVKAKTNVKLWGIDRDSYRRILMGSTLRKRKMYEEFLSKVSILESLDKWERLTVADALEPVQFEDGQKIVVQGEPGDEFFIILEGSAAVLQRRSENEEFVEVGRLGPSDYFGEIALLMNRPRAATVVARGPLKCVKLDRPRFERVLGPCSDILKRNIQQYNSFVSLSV", "UniProt Q04609, sequence (whole entry, looked up)": "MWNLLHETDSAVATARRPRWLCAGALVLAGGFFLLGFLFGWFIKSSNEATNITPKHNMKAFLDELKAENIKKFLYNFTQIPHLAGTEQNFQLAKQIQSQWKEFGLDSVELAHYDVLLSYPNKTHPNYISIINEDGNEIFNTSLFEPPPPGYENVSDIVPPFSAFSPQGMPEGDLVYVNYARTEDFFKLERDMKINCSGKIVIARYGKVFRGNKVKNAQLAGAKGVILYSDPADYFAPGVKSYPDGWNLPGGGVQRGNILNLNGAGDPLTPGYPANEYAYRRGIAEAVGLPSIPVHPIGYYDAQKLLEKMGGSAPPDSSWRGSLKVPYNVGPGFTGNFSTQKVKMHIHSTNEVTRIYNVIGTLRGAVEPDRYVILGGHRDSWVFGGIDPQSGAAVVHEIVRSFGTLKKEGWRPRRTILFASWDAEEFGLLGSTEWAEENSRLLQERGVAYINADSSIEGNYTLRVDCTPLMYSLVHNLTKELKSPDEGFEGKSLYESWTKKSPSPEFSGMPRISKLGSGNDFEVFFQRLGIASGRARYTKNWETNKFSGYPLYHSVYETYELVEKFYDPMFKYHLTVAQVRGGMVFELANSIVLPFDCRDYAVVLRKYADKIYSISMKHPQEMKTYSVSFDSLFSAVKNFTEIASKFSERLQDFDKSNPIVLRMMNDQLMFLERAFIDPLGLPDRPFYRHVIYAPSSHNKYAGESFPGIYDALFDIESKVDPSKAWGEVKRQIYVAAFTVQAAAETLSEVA", "UniProt Q02790, sequence (whole entry, looked up)": "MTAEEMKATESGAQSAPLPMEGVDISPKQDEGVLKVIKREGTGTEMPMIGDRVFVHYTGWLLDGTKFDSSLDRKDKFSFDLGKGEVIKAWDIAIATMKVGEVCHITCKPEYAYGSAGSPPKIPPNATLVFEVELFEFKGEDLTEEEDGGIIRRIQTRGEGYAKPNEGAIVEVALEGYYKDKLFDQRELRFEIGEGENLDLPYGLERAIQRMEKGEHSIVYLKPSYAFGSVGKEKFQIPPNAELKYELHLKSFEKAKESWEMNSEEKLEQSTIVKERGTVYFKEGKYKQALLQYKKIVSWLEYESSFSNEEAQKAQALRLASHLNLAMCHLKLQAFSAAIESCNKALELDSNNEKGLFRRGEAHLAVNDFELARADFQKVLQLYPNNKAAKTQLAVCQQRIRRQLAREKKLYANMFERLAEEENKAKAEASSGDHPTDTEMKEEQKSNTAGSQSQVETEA", "UniProt P95435, sequence (whole entry, looked up)": "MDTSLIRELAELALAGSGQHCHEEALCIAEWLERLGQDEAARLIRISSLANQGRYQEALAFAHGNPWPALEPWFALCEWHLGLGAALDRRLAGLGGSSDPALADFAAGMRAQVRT", "UniProt P27467, sequence (whole entry, looked up)": "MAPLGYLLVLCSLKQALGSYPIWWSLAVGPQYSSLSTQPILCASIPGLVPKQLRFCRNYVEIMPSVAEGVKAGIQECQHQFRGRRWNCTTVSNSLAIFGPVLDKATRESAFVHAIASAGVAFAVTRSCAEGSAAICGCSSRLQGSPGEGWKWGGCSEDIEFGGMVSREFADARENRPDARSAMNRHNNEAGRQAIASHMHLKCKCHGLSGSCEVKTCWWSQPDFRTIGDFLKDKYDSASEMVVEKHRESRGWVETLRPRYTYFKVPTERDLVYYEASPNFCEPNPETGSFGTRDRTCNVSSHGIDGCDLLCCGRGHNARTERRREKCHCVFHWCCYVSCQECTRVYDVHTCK"}
{"Compound": "Nc1ncnc2c1ncn2[C@@H]1O[C@@H]2CO[P@@](O)(=S)O[C@H]2[C@H]1O", "target": "PRKAR1A (Bos taurus, UniProt P00514, R210K)", "assay": "binding, NMR", "Kd": "24 µM"}
{"Compound": "CC[C@H](C)[C@H](NC(=O)[C@H](CCCCN)NC(=O)[C@H](CCC(N)=O)NC(=O)[C@H](CC(C)C)NC(=O)[C@@H](NC(=O)CNC(=O)[C@H](CCC(N)=O)NC(=O)[C@H](CCSC)NC(=O)[C@H](CC(C)C)NC(=O)[C@H](CC(=O)O)NC(=O)[C@H](CCCNC(=N)N)NC(=O)[C@H](CC(C)C)NC(=O)[C@H](C)NC(=O)[C@H](CCCNC(=N)N)NC(=O)[C@@H](NC(=O)[C@@H](NC(=O)[C@@H](N)[C@@H](C)O)C(C)C)[C@@H](C)O)[C@@H](C)CC)C(=O)O", "target": "Type 3 secretion system chaperone PscG, with PscE (pscG, Pseudomonas aeruginosa, UniProt P95435)", "assay": "isothermal titration calorimetry", "conditions": "25 °C", "Kd": "0.0515 µM"}
{"Compound": "C=Cc1cc(OC)c2c(c1)c(=O)oc1c2cc(OC)c2c(O)ccc([C@@H]3O[C@H](C)[C@H](O)[C@@](C)(O)[C@H]3O)c21", "target": "Bifunctional protein GlmU (Staphylococcus aureus, UniProt Q5HIH6)", "assay": "binding, MST", "Kd": "0.00461 µM"}
{"Compound": "CSCC[C@H](NC(=O)[C@H](CCC(N)=O)NC(=O)CNC(=O)[C@H](CCC(N)=O)NC(=O)[C@H](CO)NC(=O)[C@@H]1CCCN1C(=O)[C@H](CCSC)NC(=O)[C@@H](NC(=O)[C@H](CC(C)C)NC(=O)[C@H](CO)NC(=O)[C@H](CC(C)C)NC(=O)[C@@H](NC(=O)[C@@H](NC(=O)[C@H](CO)NC(=O)[C@@H](NC(=O)[C@H](CCCCN)NC(=O)[C@H](CO)NC(=O)[C@@H](NC(=O)[C@H](CO)NC(=O)[C@H](CCC(N)=O)NC(=O)[C@H](C)NC(=O)[C@H](CO)NC(=O)[C@H](CO)NC(=O)[C@H](C)NC(=O)[C@@H]1CCCN1C(=O)[C@H](C)NC(=O)[C@H](CO)NC(=O)[C@@H](NC(=O)[C@@H]1CCCN1C(=O)[C@H](Cc1ccc(O)cc1)NC(=O)[C@@H](NC(=O)[C@H](CCCNC(=N)N)NC(=O)CNC(=O)CNC(=O)[C@@H]1CCCN1C(=O)[C@H](C)NC(=O)[C@@H]1CCCN1C(=O)[C@@H](NC(=O)[C@@H]1CCCN1C(=O)[C@@H](NC(=O)[C@@H]1CCCN1C(=O)[C@H](CCC(N)=O)NC(=O)[C@H](CO)NC(=O)[C@H](CCSC)NC(=O)[C@@H](N)CCC(=O)O)[C@@H](C)O)[C@@H](C)O)C(C)C)C(C)C)[C@@H](C)O)[C@@H](C)O)C(C)C)[C@@H](C)O)C(C)C)C(=O)N[C@H](C(=O)O)C(C)C", "target": "MAPK11 (Homo sapiens, UniProt Q15759)", "assay": "binding, isothermal titration calorimetry", "conditions": "25 °C", "Kd": "2.2 µM"}
{"Compound": "CC[C@H](C)[C@@H]1NC(=O)[C@H](CC(N)=O)NC(=O)[C@@H](Cc2ccc(O)cc2)NC(=O)CSC[C@@H](C(=O)NCC(N)=O)NC(=O)[C@H](CCCNC(=N)N)NC(=O)[C@H](Cc2ccc(O)cc2)NC(=O)[C@H](CC(C)C)NC(=O)[C@H]([C@@H](C)O)NC(=O)[C@H](CC(C)C)NC(=O)[C@H]([C@@H](C)O)NC(=O)[C@@H]2CCCN2C(=O)[C@H](CC(C)C)NC(=O)[C@H](CC(N)=O)NC(=O)[C@H](Cc2ccccc2)NC(=O)[C@H](C(C)C)NC(=O)[C@H](Cc2c[nH]c3ccccc23)NC1=O", "target": "Protein Wnt-3a, with afamin (Mus musculus, UniProt P27467)", "assay": "binding, SPR single cycle kinetics", "system": "immobilised mWnt3a–human afamin complex", "conditions": "25 °C", "Kd": "0.49 µM"}
{"Compound": "CSCC[C@H](NC(=O)[C@H](CCCNC(=N)N)NC(=O)[C@H](CO)NC(=O)[C@@H](NC(=O)[C@H](CC(=O)O)NC(=O)[C@H](CC(=O)O)NC(=O)CCCCCNC(=O)c1ccc2c(c1)C(=O)OC21c2ccc(O)cc2Oc2cc(O)ccc21)[C@@H](C)O)C(=O)N[C@@H](CCC(=O)O)C(=O)N[C@@H](CCCCN)C(=O)N[C@H](C(=O)N[C@@H](CC(=O)O)C(=O)O)C(C)C", "target": "FKBP4 (Homo sapiens, UniProt Q02790)", "assay": "binding, FP", "conditions": "pH 7.4", "Kd": "> 25 µM"}
{"Compound": "C#CC[C@H](NC(=O)CNC(=O)[C@H](CO)NC(=O)[C@H](CCCCN)NC(=O)[C@H](C)N(C)C(=O)[C@H](C)NC(=O)[C@@H](NC(=O)[C@@H](NC(=O)[C@H](CCCNC(=N)N)NC(=O)[C@H](Cc1c[nH]cn1)NC(=O)[C@@H]1CCCN1C(=O)[C@H](Cc1c[nH]c2ccccc12)NC(=O)[C@@H](N)CCSC)C(C)C)[C@@H](C)O)C(=O)O", "target": "Microtubule-associated protein 1 light chain 3 alpha (Homo sapiens, UniProt Q9H492)", "assay": "fluorescence polarization", "Kd": "0.375 ± 0.157 µM"}
{"Compound": "CC1=C(C)C(Oc2c(F)cc3c(C)cc(=O)oc3c2F)OC1=O (racemic)", "target": "RMS3", "assay": "binding, fluorescence", "Kd": "58.9 µM"}
{"Compound": "CC[C@H](C)[C@H](NC(=O)[C@H](CC(C)C)NC(=O)[C@H](CCCCN)NC(=O)[C@H](Cc1ccccc1)NC(=O)[C@@H]1CCCN1C(=O)[C@@H]1CCCN1C(=O)[C@H](CCCNC(=N)N)NC(=O)[C@@H](NC(=O)[C@H](CC(C)C)NC(=O)[C@H](CCCCN)NC(=O)[C@@H]1CCCN1C(=O)[C@H](CCCCN)NC(=O)[C@@H]1CCCN1C(=O)[C@H](CO)NC(=O)[C@H](CO)NC(=O)[C@H](Cc1c[nH]cn1)NC(=O)CNC(=O)[C@H](Cc1ccc(OS(=O)(=O)O)cc1)NC(=O)[C@@H](N)CC(=O)O)C(C)C)C(=O)N1CCC[C@H]1C(=O)N[C@@H](CC(N)=O)C(=O)O", "target": "LRR receptor-like serine/threonine-protein kinase GSO1, ectodomain (GSO1, Arabidopsis thaliana, UniProt C0LGQ5)", "assay": "isothermal titration calorimetry", "system": "ectodomain", "conditions": "pH 5.0, 25 °C", "Kd": "~0.04 µM"}
{"Compound": "CC[C@H](C)[C@H](NC(=O)[C@H](Cc1ccc(O)cc1)NC(=O)[C@@H]1CCCN1C(=O)[C@H](CCCCN)NC(=O)[C@H](CCCCN)NC(=O)CCNC(=O)CCNC(=O)[C@H](CCC(=O)NCCC(=O)NCCC(=O)N[C@@H](Cc1ccc(OCC(=O)N[C@@H](Cc2ccccc2)C(=O)NCCCC[C@H](NC(=O)N[C@@H](CCC(=O)O)C(=O)O)C(=O)O)cc1)C(=O)O)NC(=O)CCNC(=O)CCNC(=O)CN1CCN(CC(=O)O)CCN(CC(=O)O)CCN(CC(=O)O)CC1)C(=O)N[C@@H](CC(C)C)C(=O)O [gallium-68 labelled]", "target": "FOLH1 (Homo sapiens, UniProt Q04609)", "assay": "saturation binding", "system": "PC3-PIP cells (NTS1+ and PSMA+)", "conditions": "2 h, 4 °C", "Kd": "0.053 µM"}
{"Compound": "Cc1cc(N)c2cc(NC(=O)c3ccc4c(-c5ccccc5O)cccc4c3)ccc2n1", "target": "acrB (Escherichia coli, UniProt P31224)", "assay": "binding, SPR", "Kd": "4920 µM"}
{"Compound": "CC(=O)NC1C(O)OC(CO)C(O)C1OC1OC(CO)C(O)C(O)C1O (stereo not shown)", "target": "Intermedilysin (Streptococcus intermedius, UniProt Q9LCB8)", "assay": "binding", "Kd": "60 µM"}
{"Compound": "CC[C@H](C)[C@H](NC(=O)[C@H](CCCCN)NC(=O)[C@H](CC(C)C)NC(=O)[C@H](Cc1ccccc1)NC(=O)[C@@H](NC(=O)[C@@H](N)CCCCN)[C@@H](C)O)C(=O)N[C@@H](CS)C(=O)N[C@@H](CCCCN)C(=O)N[C@@H](CCCNC(=N)N)C(=O)N1CCC[C@H]1C(=O)N[C@@H](Cc1ccc(O)cc1)C(=O)N[C@H](C(=O)N1CCC[C@H]1C(=O)N[C@@H](CO)C(=O)N[C@@H](CCC(=O)O)C(=O)N1CCC[C@H]1C(N)=O)C(C)C", "target": "Leishmania secreted acid phosphatase", "assay": "surface plasmon resonance", "conditions": "pH 6.5, 25 °C", "Kd": "0.00442 ± 9e-05 µM"}
{"Compound": "CC(C)P(=S)(NP(=[Se])(C(C)C)C(C)C)C(C)C", "target": "Alpha-amylase (Bacillus subtilis, UniProt P00691)", "assay": "fluorescence quenching", "conditions": "310 K", "Kd": "1490 µM"}
{"Compound": "CC[C@H](C)[C@@H]1NC(=O)[C@@H]2CCCN2C(=O)[C@@H](NC(=O)[C@H](C)NC(=O)[C@H](CCSC)NC(C)=O)CSCc2cc3cc(c2)CSC[C@@H](C(=O)N[C@@H](Cc2ccc(O)cc2)C(=O)NCC(=O)N[C@@H](CO)C(=O)NCC(=O)N[C@@H](CO)C(=O)NCC(=O)N[C@@H](CO)C(=O)N[C@@H](CC(=O)O)C(=O)N[C@@H](Cc2ccc(O)cc2)C(=O)N[C@@H](CCCCN)C(=O)N[C@@H](CC(=O)O)C(=O)N[C@@H](CC(=O)O)C(=O)N[C@@H](CC(=O)O)C(=O)N[C@@H](CC(=O)O)C(=O)N[C@@H](CCCCN)C(N)=O)NC(=O)[C@H](Cc2ccc(O)cc2)NC(=O)[C@H](CCCNC(=N)N)NC(=O)[C@H](CC(C)C)NC(=O)[C@H]([C@@H](C)O)NC(=O)[C@H](CC(N)=O)NC(=O)[C@H]([C@@H](C)O)NC(=O)[C@H](CSC3)NC(=O)CNC1=O", "target": "FGFR3 (Homo sapiens, UniProt P22607)", "assay": "binding, BLI", "Kd": "0.0332 µM"}
{"Compound": "Cc1cc(=O)oc2c(F)c(OC3C=CC(=O)O3)c(F)cc12 (racemic)", "target": "RMS3", "assay": "binding, fluorescence", "Kd": "21 µM"}
